Measurements pooled from the literature.
Compare with care: the assays were run in different laboratories. Numbers after ± are the reported error.

| SMILES | species | matrix | route | dose | time | notes | tissue uptake |
| --- | --- | --- | --- | --- | --- | --- | --- |
| CCCC[C@H](NC(=O)CNC(=O)CNC(=O)c1ccc(NN)nc1)C(=O)N[C@H]1CC(=O)NCCCC[C@@H](C(N)=O)NC(=O)[C@H](Cc2c[nH]c3ccccc23)NC(=O)[C@H](CCCNC(=N)N)NC(=O)[C@@H](Cc2ccccc2)NC(=O)[C@H](Cc2c[nH]cn2)NC1=O [technetium-99m labelled] | C57 mouse, B16/F1 melanoma-bearing | stomach | intravenous | – | 4 h | – | 0.52 ± 0.24 %ID/g |
| N=C(N)NCCC[C@@H]1NC(=O)[C@H](CC(=O)NC23CNCCNCC(N)(CNCCNC2)CNCCNC3)NC(=O)[C@@H](Cc2ccccc2)NC(=O)[C@H](CC(=O)O)NC(=O)CNC1=O [copper-64 labelled] | Nu/Nu mouse, male, tumour-bearing | blood | intravenous | 10 µCi | 4 h | – | 0.06 ± 0.02 %ID/g |
| CCCC[C@H](NC(=O)CCCCCCCNC(=O)c1ccc(NN)nc1)C(=O)N[C@H]1CC(=O)NCCCC[C@@H](C(N)=O)NC(=O)[C@H](Cc2c[nH]c3ccccc23)NC(=O)[C@H](CCCNC(=N)N)NC(=O)[C@@H](Cc2ccccc2)NC(=O)[C@H](Cc2c[nH]cn2)NC1=O [technetium-99m labelled] | C57 mouse, B16/F1 melanoma | intestines | intravenous | 0.037 MBq | 2 h | – | 1.85 ± 0.51 %ID |
| N=C(N)NCCC[C@@H]1NC(=O)[C@H](CCCCNC(=O)CC[C@H](NC(=O)CCOCCOCCOCCOCCNC(=O)CN2CCN(CC(=O)O)CCN(CC(=O)O)CCN(CC(=O)O)CC2)C(=O)NCCCC[C@@H]2NC(=O)[C@@H](Cc3ccccc3)NC(=O)[C@H](CC(=O)O)NC(=O)CNC(=O)[C@H](CCCNC(=N)N)NC2=O)NC(=O)[C@@H](Cc2ccccc2)NC(=O)[C@H](CC(=O)O)NC(=O)CNC1=O [indium-111 labelled] | female athymic nude mice | intestine | intravenous | 3 µCi | 24 h | U-87 MG glioma xenograft | 2.28 ± 0.78 %ID/g |
| CSCC[C@H](NC(=O)[C@H](CC(C)C)NC(=O)[C@H](Cc1c[nH]cn1)NC(=O)CNC(=O)[C@@H](NC(=O)[C@H](C)NC(=O)[C@H](Cc1c[nH]c2ccccc12)NC(=O)[C@H](CCC(N)=O)NC(=O)CCCCCNC(=O)CNC(=O)CNC(=O)CNC(=O)CSC(C)=O)C(C)C)C(N)=O [technetium-99m labelled] | nude mouse, PC-3 xenograft | bone | – | – | 90 min | – | 0.24 ± 0.08 %ID/g |
| N=C(N)NCCC[C@@H]1NC(=O)[C@H](CCCCNC(=O)CCOCCOCCOCCOCCNC(=O)CC[C@H](NC(=O)CCOCCOCCOCCOCCNC(=O)CC[C@H](NC(=O)CN2CCN(CC(=O)O)CCN(CC(=O)O)CCN(CC(=O)O)CC2)C(=O)NCCOCCOCCOCCOCCC(=O)N[C@@H](CCC(=O)NCCOCCOCCOCCOCCC(=O)NCCCC[C@@H]2NC(=O)[C@@H](Cc3ccccc3)NC(=O)[C@H](CC(=O)O)NC(=O)CNC(=O)[C@H](CCCNC(=N)N)NC2=O)C(=O)NCCOCCOCCOCCOCCC(=O)NCCCC[C@@H]2NC(=O)[C@@H](Cc3ccccc3)NC(=O)[C@H](CC(=O)O)NC(=O)CNC(=O)[C@H](CCCNC(=N)N)NC2=O)C(=O)NCCOCCOCCOCCOCCC(=O)NCCCC[C@@H]2NC(=O)[C@@H](Cc3ccccc3)NC(=O)[C@H](CC(=O)O)NC(=O)CNC(=O)[C@H](CCCNC(=N)N)NC2=O)NC(=O)[C@@H](Cc2ccccc2)NC(=O)[C@H](CC(=O)O)NC(=O)CNC1=O [indium-111 labelled] | female athymic nude mice | intestine | intravenous | 3 µCi | 0.5 h | U-87 MG glioma xenograft | 11.6 ± 2.52 %ID/g |
| CCCC[C@H](NC(=O)COCCOCCNC(=O)c1ccc(NN)nc1)C(=O)N[C@H]1CC(=O)NCCCC[C@@H](C(N)=O)NC(=O)[C@H](Cc2c[nH]c3ccccc23)NC(=O)[C@H](CCCNC(=N)N)NC(=O)[C@@H](Cc2ccccc2)NC(=O)[C@H](Cc2c[nH]cn2)NC1=O [technetium-99m labelled] | C57 mouse, female, B16/F1 melanoma | bone | intravenous | 0.037 MBq | 2 h | – | 0.29 ± 0.14 %ID/g |
| CSCC[C@H](NC(=O)[C@H](CC(C)C)NC(=O)[C@H](Cc1c[nH]cn1)NC(=O)CNC(=O)[C@@H](NC(=O)[C@H](C)NC(=O)[C@H](Cc1c[nH]c2ccccc12)NC(=O)[C@H](CCC(N)=O)NC(=O)CCCCCCCNC(=O)CCC(=O)Nc1ccc(CNC23CNCCNCC(N)(CNCCNC2)CNCCNC3)cc1)C(C)C)C(N)=O [copper-64 labelled] | female SCID mice, PC-3 xenograft | lung | intravenous | 0.6 MBq | 4 h | – | 0.679 ± 0.028 %ID/g |
| N=C(N)NCCC[C@@H]1NC(=O)[C@H](CCCCNC(=O)CC[C@H](NC(=O)CCOCCOCCOCCOCCNC(=O)CC[C@H](NC(=O)CN2CCN(CC(=O)O)CCN(CC(=O)O)CCN(CC(=O)O)CC2)C(=O)NCCOCCOCCOCCOCCC(=O)N[C@@H](CCC(=O)NCCCC[C@@H]2NC(=O)[C@@H](Cc3ccccc3)NC(=O)[C@H](CC(=O)O)NC(=O)CNC(=O)[C@H](CCCNC(=N)N)NC2=O)C(=O)NCCCC[C@@H]2NC(=O)[C@@H](Cc3ccccc3)NC(=O)[C@H](CC(=O)O)NC(=O)CNC(=O)[C@H](CCCNC(=N)N)NC2=O)C(=O)NCCCC[C@@H]2NC(=O)[C@@H](Cc3ccccc3)NC(=O)[C@H](CC(=O)O)NC(=O)CNC(=O)[C@H](CCCNC(=N)N)NC2=O)NC(=O)[C@@H](Cc2ccccc2)NC(=O)[C@H](CC(=O)O)NC(=O)CNC1=O [indium-111 labelled] | female athymic nude mice | muscle | intravenous | 3 µCi | 4 h | U-87 MG glioma xenograft | 0.72 ± 0.23 %ID/g |

Excerpt of the above:
| SMILES | species | matrix | route | dose | time | notes | tissue uptake |
| --- | --- | --- | --- | --- | --- | --- | --- |
| CCCC[C@H](NC(=O)CCCCCCCNC(=O)c1ccc(NN)nc1)C(=O)N[C@H]1CC(=O)NCCCC[C@@H](C(N)=O)NC(=O)[C@H](Cc2c[nH]c3ccccc23)NC(=O)[C@H](CCCNC(=N)N)NC(=O)[C@@H](Cc2ccccc2)NC(=O)[C@H](Cc2c[nH]cn2)NC1=O [technetium-99m labelled] | C57 mouse, B16/F1 melanoma | intestines | intravenous | 0.037 MBq | 2 h | – | 1.85 ± 0.51 %ID |
